Measurements from different studies.
Lines come from different studies, so protocols differ. Values joined by “and” are separate records of one study, mostly repeats; a detail may differ. ± marks the error that the study gave.
TAGLN: Transgelin (TAGLN, Homo sapiens, UniProt Q01995)
VHL/BRD9: VHL/BRD9 (Homo sapiens, UniProt P40337+Q9H8M2)

O=C(/C=C/c1ccc(O)c(O)c1/C=C/c1ccc(O)c(O)c1)OC(Cc1cccc(O)c1)C(=O)O (stereo not drawn)  Kd (TAGLN; binding, surface plasmon resonance): 16.6 µM
C#CCN1CCN(c2nc(N3CCC(CCOc4cc(-c5scnc5C)ccc4CNC(=O)[C@@H]4C[C@@H](O)CN4C(=O)[C@@H](NC(=O)C4(F)CC4)C(C)(C)C)CC3)nc(N3CCN(C(=O)C4CC4)C3)n2)CC1=O  Kd (VHL/BRD9; ternary binding, SPR; together with: VCB at 2 µM): 1.8 µM
CCCCCCCCO[C@@H]1O[C@H](CO)[C@H](O)[C@H](O)[C@H]1O[C@@H]1O[C@@H](C)[C@@H](O)[C@@H](O)[C@@H]1O  Kd (ABO (Homo sapiens, UniProt P16442, G235S/G268A/L266M/R176G/W181E); methyl-TROSY NMR titration lineshape analysis; apo mutant enzyme): 35 ± 1 µM
COC1CN([C@H]2CC[C@H]([C@@]3(C)Oc4c(Cl)cc(C(=O)NCc5c(SC)cc(C)[nH]c5=O)c(C)c4O3)CC2)C1  log2 fold change (RNA-seq, refers to: RAB19 mouse homolog; mouse, HT-1376 xenograft, whole blood; dose not given; reference: vehicle): 0.25
NCCC(=O)O  Kd (SLC6A6 (Homo sapiens, UniProt P31641, F300A)): no binding
CCOC(=O)C(CCNC(=O)/C=C/c1ccc(OC)c(OC)c1/C=C/c1ccc(OC)c(OC)c1)Cc1cccc(OC)c1 (stereo not drawn)  Kd (TAGLN; binding, surface plasmon resonance): 110 µM
O=c1[nH]nc(-c2ccc(N3CCN(CCO)CC3)c([N+](=O)[O-])c2)c2ccccc12  Kd (B- and T-lymphocyte attenuator (BTLA, Homo sapiens, UniProt Q7Z6A9); microscale thermophoresis): 0.69 µM
Nc1ccn(-c2ccc(Cl)cc2)c(=O)c1  Kd (GPX4 (Homo sapiens, UniProt P36969); binder, HSQC NMR titration; DLPC/DPC micelles): > 400 µM
Cc1cccc2c1N(C(=O)n1ccnn1)CC2  Kd (KAI2 (Arabidopsis thaliana, UniProt Q9SZU7, S95D); ITC; S95D mutant, mean): 42.4 µM
NC(=O)C[C@@H]1NC(=O)[C@H](Cc2ccc(O)cc2)NC(=O)CNC(=O)CNC(=O)[C@H](CCC(=O)O)NC(=O)[C@H](CCC(=O)O)NC(=O)[C@H](Cc2ccccc2)NC(=O)[C@@H]2CCCN2C1=O  Kd (EH domain-containing protein 1, EH domain (Homo sapiens, UniProt Q9H4M9); peptide binding, ITC; 20 °C, 15 mM NaCl): 2.61 µM and 2.76 µM and 1.84 µM and 2.87 µM
Fc1cccc(COc2ccc(Nc3ncnc4ccc(-c5cccc(CN6CCOCC6)c5)cc34)cc2Cl)c1  EC50 (Leishmania major; intracellular amastigote growth, luciferase; RAW264.7 macrophages): 3 µM
CC(NC(=O)[C@@H](NC(=O)[C@@H](NC(=O)CCC(C)(C)C)C(C)(C)O)[C@@H](C)c1ccccc1)C(=O)N1CCC[C@@H]1c1ccccc1 (stereo partly drawn)  Kd (G3BP1 (Homo sapiens, UniProt Q13283)): 0.15 µM
Cc1[nH]c2ccccc2c1C(c1cccs1)N1CCN(c2ccccc2)CC1 (stereo not drawn)  Kd (Acyl-coenzyme A thioesterase 11 (ACOT11, Homo sapiens, UniProt Q8WXI4); binding, microscale thermophoresis): 6.43 µM
CC(C)C[C@H](NC(=O)[C@H](Cc1ccc(O)cc1)NC(=O)[C@@H](CCCNC(=N)N)NC(=O)[C@@H](CO)NC(=O)[C@H](Cc1ccccc1)NC(=O)[C@H](CC1CCCCC1)NC(=O)[C@H](CC(=O)O)NC(=O)CN1CCN(CC(=O)O)CCN(CC(=O)O)CCN(CC(=O)O)CC1)C(=O)N[C@@H](Cc1c[nH]c2ccccc12)C(=O)N[C@@H](CO)C(=O)O [copper-64 labelled]  activity concentration (human, kidney; concentration not given, 1 h): 10400 Bq/mL and 9970 Bq/mL and 7490 Bq/mL and 8610 Bq/mL and 9640 Bq/mL and 7290 Bq/mL
Cc1nn(-c2cccc(N)c2)c(=O)c2cnc(Nc3ccc(N4CCNCC4)cc3)nc12  IC50 (MAPK3 (Homo sapiens, UniProt P27361); kinase activity, inhibitor, SelectScreen kinase profiling): > 10 µM
C=C(NC(=O)c1csc(-c2nc3c(cc2O)-c2nc(cs2)C(=O)NC(C(C)O)C(=O)NC(=C(C)OC)c2nc(cs2)C(=O)NC2c4nc(cs4)C(=O)NC(COC(=O)c4c5c6c(cccc6n4O)COC(=O)C(OC4CC(C)(O)C(N(C)C)C(C)O4)C2OC5)c2nc-3cs2)n1)C(N)=O (stereo not drawn)  MRT(0-t) (ICR mice, Streptococcus pneumoniae ATCC 49169 infected, immunocompromised, blood; intravenous, 16 mg/kg/day twice daily): 5.81 h
CC(=O)NCCN(c1nc(N2CC(Oc3ccccc3)C2)nc(N2CC3C(CCOc4cc(-c5scnc5C)ccc4CNC(=O)[C@@H]4C[C@@H](O)CN4C(=O)[C@@H](NC(=O)C4(F)CC4)C(C)(C)C)C3C2)n1)C(C)C (stereo partly drawn)  Kd (VHL/BRD9; ternary binding, SPR; together with: VCB at 2 µM): 0.349 µM
CCOC(=O)C(Cc1cccc(O)c1)OC(=O)C=Cc1ccc(O)c(O)c1C=Cc1ccc(O)c(O)c1 (stereo not drawn)  Kd (TAGLN; binding, surface plasmon resonance): 2.39 µM
NS(=O)(=O)c1cc(C(=O)NCCCC(=O)O)c(NC2CCCCC2)cc1Cl  Kd (CA5B (Homo sapiens, UniProt Q9Y2D0); pH 7): > 200 µM
CCOC(=O)C(CCNC(=O)CCc1ccc(O)c(O)c1CCc1ccc(O)c(O)c1)Cc1cccc(O)c1 (stereo not drawn)  Kd (TAGLN; binding, surface plasmon resonance): 602 µM
COc1cc(Nc2ncnc3ccc(-c4ccc(S(=O)(=O)N5CCOCC5)cc4)cc23)ccc1OCc1cccc(F)c1  EC50 (Leishmania major; intracellular amastigote growth, luciferase; RAW264.7 macrophages): > 15 µM

Repeated from above:
CC(=O)NCCN(c1nc(N2CC(Oc3ccccc3)C2)nc(N2CC3C(CCOc4cc(-c5scnc5C)ccc4CNC(=O)[C@@H]4C[C@@H](O)CN4C(=O)[C@@H](NC(=O)C4(F)CC4)C(C)(C)C)C3C2)n1)C(C)C (stereo partly drawn)  Kd (VHL/BRD9; ternary binding, SPR; together with: VCB at 2 µM): 0.349 µM
